Assay results collected from several papers.
Protocols differ between the studies behind these lines. ± gives the spread as reported.
CA2: Carbonic anhydrase 2 (CA2, Homo sapiens, UniProt P00918)
DRD4: D(4) dopamine receptor (DRD4, Homo sapiens, UniProt P21917)
Sequence of UniProt P21917 (whole entry, looked up): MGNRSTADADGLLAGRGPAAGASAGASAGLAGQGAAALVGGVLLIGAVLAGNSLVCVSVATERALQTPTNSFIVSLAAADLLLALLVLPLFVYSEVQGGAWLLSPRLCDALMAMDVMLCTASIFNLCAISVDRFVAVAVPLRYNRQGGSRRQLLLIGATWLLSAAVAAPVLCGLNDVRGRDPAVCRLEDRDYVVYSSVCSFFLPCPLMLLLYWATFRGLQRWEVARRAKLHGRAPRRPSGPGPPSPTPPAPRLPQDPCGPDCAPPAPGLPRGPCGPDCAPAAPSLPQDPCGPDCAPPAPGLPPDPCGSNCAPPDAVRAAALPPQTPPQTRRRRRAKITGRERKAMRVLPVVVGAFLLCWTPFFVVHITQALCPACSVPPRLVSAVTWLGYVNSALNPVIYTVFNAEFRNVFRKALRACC
Chymotrypsin-C: Chymotrypsin-C (Homo sapiens, UniProt Q99895)
Sequence of UniProt Q99895 (whole entry, looked up): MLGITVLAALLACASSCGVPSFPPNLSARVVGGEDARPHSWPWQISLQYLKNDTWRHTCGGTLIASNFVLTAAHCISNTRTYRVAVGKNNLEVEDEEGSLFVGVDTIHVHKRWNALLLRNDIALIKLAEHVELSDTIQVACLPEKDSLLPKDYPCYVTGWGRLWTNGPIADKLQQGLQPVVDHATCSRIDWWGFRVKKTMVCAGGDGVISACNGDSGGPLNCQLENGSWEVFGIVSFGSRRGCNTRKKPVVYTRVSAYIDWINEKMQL
CA12: Carbonic anhydrase 12 (CA12, Homo sapiens, UniProt O43570)
Sequence of UniProt O43570 (whole entry, looked up): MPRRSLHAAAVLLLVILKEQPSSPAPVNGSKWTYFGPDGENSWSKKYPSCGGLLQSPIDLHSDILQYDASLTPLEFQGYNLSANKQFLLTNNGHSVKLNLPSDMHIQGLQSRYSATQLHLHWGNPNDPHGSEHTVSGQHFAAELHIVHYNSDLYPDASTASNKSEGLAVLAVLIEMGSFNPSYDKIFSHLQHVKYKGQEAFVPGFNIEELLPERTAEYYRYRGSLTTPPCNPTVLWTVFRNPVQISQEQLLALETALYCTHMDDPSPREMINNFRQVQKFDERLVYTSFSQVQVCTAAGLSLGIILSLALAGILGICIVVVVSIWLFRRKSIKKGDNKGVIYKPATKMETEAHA
Sequence of UniProt P41143 (whole entry, unmodified, looked up): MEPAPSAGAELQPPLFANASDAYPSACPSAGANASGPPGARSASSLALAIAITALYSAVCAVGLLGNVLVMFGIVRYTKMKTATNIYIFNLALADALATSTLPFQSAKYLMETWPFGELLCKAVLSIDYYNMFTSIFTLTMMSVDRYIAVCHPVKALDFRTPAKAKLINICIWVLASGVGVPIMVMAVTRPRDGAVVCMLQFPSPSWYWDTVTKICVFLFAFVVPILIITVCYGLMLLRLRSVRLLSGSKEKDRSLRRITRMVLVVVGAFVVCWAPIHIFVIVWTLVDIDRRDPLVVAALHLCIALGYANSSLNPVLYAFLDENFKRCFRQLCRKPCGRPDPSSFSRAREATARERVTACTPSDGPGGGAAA
Sequence of UniProt P18089 (whole entry, looked up): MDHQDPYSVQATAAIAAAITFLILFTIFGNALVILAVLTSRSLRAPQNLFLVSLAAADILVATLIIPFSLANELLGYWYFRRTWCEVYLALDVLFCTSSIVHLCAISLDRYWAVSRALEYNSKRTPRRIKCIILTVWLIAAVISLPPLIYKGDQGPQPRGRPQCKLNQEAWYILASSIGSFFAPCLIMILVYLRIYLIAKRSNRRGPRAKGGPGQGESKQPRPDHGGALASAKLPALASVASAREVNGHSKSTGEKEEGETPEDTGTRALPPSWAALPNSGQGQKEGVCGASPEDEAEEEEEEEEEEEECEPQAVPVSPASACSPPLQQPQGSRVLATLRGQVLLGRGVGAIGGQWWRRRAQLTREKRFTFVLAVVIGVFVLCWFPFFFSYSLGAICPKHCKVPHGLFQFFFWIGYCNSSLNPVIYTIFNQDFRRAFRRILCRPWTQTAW
Sequence of UniProt Q02790 (whole entry, looked up): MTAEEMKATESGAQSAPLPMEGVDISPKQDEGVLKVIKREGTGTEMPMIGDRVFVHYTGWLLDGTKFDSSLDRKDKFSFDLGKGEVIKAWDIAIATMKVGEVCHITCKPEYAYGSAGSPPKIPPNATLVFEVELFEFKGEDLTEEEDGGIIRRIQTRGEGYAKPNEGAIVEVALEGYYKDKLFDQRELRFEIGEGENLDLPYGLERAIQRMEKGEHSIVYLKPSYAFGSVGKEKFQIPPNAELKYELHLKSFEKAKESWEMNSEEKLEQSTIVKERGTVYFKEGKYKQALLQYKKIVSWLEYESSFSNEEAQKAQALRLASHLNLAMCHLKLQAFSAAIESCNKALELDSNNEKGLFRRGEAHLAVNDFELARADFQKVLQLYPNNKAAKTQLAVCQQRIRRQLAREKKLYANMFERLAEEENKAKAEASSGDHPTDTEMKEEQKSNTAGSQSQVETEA
Sequence of UniProt P28335 (whole entry, looked up): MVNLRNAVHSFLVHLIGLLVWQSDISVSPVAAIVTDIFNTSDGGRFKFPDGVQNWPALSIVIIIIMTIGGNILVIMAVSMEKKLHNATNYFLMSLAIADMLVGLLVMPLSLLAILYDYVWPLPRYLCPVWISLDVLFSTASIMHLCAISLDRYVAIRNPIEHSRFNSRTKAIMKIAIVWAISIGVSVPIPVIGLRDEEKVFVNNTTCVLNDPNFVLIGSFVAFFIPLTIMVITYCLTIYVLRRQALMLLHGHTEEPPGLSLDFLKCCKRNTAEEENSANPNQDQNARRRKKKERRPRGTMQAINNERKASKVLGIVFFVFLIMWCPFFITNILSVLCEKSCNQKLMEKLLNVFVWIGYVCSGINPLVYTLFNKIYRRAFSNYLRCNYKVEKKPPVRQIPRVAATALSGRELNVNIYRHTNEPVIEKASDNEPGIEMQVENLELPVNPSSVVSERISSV
Sequence of UniProt Q62666 (whole entry, looked up): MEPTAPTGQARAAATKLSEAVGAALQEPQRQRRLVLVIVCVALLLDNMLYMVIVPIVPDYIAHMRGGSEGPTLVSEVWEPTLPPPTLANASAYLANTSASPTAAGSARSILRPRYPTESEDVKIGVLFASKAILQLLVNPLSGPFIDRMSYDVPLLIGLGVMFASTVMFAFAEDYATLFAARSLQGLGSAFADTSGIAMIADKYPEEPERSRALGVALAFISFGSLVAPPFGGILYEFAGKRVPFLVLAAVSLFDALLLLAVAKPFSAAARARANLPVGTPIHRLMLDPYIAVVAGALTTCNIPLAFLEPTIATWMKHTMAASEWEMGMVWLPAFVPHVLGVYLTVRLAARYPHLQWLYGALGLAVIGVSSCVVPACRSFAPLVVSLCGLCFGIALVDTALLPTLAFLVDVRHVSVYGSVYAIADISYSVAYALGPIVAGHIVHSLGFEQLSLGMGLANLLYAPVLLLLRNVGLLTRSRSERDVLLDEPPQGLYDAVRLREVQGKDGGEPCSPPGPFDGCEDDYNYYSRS
Sequence of UniProt Q13547 (whole entry, looked up): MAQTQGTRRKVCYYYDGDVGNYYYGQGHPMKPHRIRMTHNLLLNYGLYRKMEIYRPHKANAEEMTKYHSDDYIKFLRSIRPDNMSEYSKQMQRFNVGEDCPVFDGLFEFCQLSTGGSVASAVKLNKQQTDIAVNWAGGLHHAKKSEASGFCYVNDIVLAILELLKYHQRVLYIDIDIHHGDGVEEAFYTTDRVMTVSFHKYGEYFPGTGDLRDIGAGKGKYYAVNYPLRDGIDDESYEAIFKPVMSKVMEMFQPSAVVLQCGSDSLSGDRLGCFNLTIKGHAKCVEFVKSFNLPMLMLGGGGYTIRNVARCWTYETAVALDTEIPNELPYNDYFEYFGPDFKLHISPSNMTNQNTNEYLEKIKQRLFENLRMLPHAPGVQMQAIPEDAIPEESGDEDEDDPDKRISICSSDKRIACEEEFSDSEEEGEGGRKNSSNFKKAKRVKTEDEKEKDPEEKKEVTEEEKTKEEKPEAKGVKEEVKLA
Sequence of UniProt P47936 (whole entry, looked up): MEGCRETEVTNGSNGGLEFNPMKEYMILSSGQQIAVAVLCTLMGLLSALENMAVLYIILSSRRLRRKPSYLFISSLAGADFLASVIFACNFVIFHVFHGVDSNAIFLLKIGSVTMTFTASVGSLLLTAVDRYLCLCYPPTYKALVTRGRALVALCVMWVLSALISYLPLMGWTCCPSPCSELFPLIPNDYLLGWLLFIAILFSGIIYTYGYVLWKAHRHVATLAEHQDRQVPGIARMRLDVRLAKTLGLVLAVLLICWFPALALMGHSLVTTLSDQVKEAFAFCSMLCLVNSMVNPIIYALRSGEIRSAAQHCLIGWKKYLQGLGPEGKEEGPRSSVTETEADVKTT

With `CCCCCCCCCCN(O)C(=O)CCCCC[C@@H]1NC(=O)[C@H]2CCCN2C(=O)[C@H](Cc2ccccc2)NC(=O)[C@H](Cc2ccccc2)NC1=O` the Ki was 2.9 nM (HDAC1 (Homo sapiens, UniProt Q13547); enzyme activity, inhibitor, fluorescence).
The Ki of `Cn1c(C(C)(C)C)c/c(=N\C(=O)c2cc(C(F)(F)F)ccc2OCC(C)(C)O)n1CC1CCC1` is reported as 1.33 nM (Cnr2 (Mus musculus, UniProt P47936); ligand displacement, radioligand).
The Ki of `O=S(=O)(N/N=C/c1ccc(OS(=O)(=O)c2ccc(Cl)cc2)cc1)c1cc(Cl)ccc1Cl` is reported as 63.7 nM (CA2; enzyme activity, inhibitor, absorbance).
`C[C@@H](Cc1ccsc1)NC(=O)NC[C@H](Cc1ccc(O)cc1)N(C)C` gave a Ki of 7600 nM (ADRA2B (Homo sapiens, UniProt P18089); cell-free assay).
`C[C@@H](CN1CCC(Cc2ccccc2)CC1)[C@@H](O)c1ccc(O)cc1` gave a Ki of 117 nM (DRD4; cell-free assay).
`O=C1c2ccccc2CCCN1CCCCN1CCN(c2cccc(Cl)c2Cl)CC1` gave a Ki of 9 nM (DRD4; ligand displacement, radioligand).
`COc1ccc(CC[C@H]2OC(=O)[C@@H]3CCCCN3C(=O)C(=O)C(C)(C)COC(=O)/C=C/CCN(C)C(=O)[C@H](CC(C)C)N(C)C(=O)[C@@H]3CCCN3C(=O)[C@H](Cc3ccccc3)N(C)C(=O)[C@H](c3ccccc3)NC(=O)CCC(=O)Nc3cccc2c3)cc1OC` has a Ki of 176 nM (FKBP4 (Homo sapiens, UniProt Q02790); enzyme activity, inhibitor).
For `CSCC[C@@H]1NC(=O)[C@H](CCSC)NC(=O)[C@H]([C@@H](C)O)NC(=O)[C@@H]2CSSC[C@@H]3NC(=O)[C@H]([C@@H](C)O)NC(=O)[C@H](CC(N)=O)NC(=O)[C@H](CSSC[C@@H](C(=O)N[C@@H](CC(=O)O)C(=O)N[C@@H](CCC(N)=O)C(=O)O)NC(=O)[C@H](CC(C)C)NC1=O)NC(=O)[C@H](CCCCN)NC(=O)[C@H](CC(=O)O)NC(=O)[C@H](CCCCN)NC(=O)[C@H](Cc1ccccc1)NC(=O)[C@H]([C@@H](C)O)NC(=O)[C@H]([C@@H](C)O)NC(=O)CNC(=O)[C@@H]1CCCN1C(=O)[C@H](CCC(=O)O)NC(=O)[C@@H](NC(=O)[C@@H](NC(=O)[C@@H](NC(=O)[C@H](CCC(=O)O)NC(=O)[C@H](CO)NC(=O)CN)C(C)C)[C@@H](C)O)CSSC[C@H](NC(=O)[C@H](CCCNC(=N)N)NC3=O)C(=O)NCC(=O)N[C@@H](CO)C(=O)N[C@@H](CC(=O)O)C(=O)NCC(=O)N[C@@H](CCCCN)C(=O)N[C@@H](CO)C(=O)N[C@@H](C)C(=O)N[C@@H](Cc1ccc(O)cc1)C(=O)N2`, the Ki was 1.76 ± 0.35 nM (Chymotrypsin-C; enzyme activity, inhibitor).
`COc1cc2c(cc1O)C(CCc1ccc(Cl)cc1)N(C)CC2` (stereo not drawn) has a Ki of 17 nM (Glutamate NMDA receptor; Grin1/Grin2b (Grin1/Grin2b, Rattus norvegicus, UniProt P35439+Q00960); ligand displacement, radioligand).
The Ki of `CSCC[C@@H]1NC(=O)[C@H](Cc2ccccc2)NC(=O)[C@H]([C@@H](C)O)NC(=O)[C@@H]2CSSC[C@@H]3NC(=O)[C@H]([C@@H](C)O)NC(=O)[C@H](CC(N)=O)NC(=O)[C@H](CSSC[C@@H](C(=O)N[C@@H](CC(=O)O)C(=O)N[C@@H](CCC(N)=O)C(=O)O)NC(=O)[C@H](CC(C)C)NC1=O)NC(=O)[C@H](CCCCN)NC(=O)[C@H](CC(=O)O)NC(=O)[C@H](CCCCN)NC(=O)[C@H](Cc1ccccc1)NC(=O)[C@H]([C@@H](C)O)NC(=O)[C@H]([C@@H](C)O)NC(=O)CNC(=O)[C@@H]1CCCN1C(=O)[C@H](CCC(=O)O)NC(=O)[C@@H](NC(=O)[C@@H](NC(=O)[C@@H](NC(=O)[C@H](CCC(=O)O)NC(=O)[C@H](CO)NC(=O)CN)C(C)C)[C@@H](C)O)CSSC[C@H](NC(=O)[C@H](CCCNC(=N)N)NC3=O)C(=O)NCC(=O)N[C@@H](CO)C(=O)N[C@@H](CC(=O)O)C(=O)NCC(=O)N[C@@H](CCCCN)C(=O)N[C@@H](CO)C(=O)N[C@@H](C)C(=O)N[C@@H](Cc1ccc(O)cc1)C(=O)N2` is reported as 1.4 ± 0.16 nM (Chymotrypsin-C; enzyme activity, inhibitor).
The Ki of `O=S(=O)(N/N=C/c1ccc(OS(=O)(=O)c2ccc(Br)cc2)cc1)c1ccc(Cl)cc1` is reported as 97.8 nM (CA2; enzyme activity, inhibitor, absorbance).
For `CSCC[C@@H]1NC(=O)[C@H](CCSC)NC(=O)[C@H]([C@@H](C)O)NC(=O)[C@@H]2CSSC[C@@H]3NC(=O)[C@H]([C@@H](C)O)NC(=O)[C@H](CC(N)=O)NC(=O)[C@H](CSSC[C@@H](C(=O)N[C@@H](CC(=O)O)C(=O)N[C@@H](CCC(N)=O)C(=O)O)NC(=O)[C@H](CC(C)C)NC1=O)NC(=O)[C@H](CCCCN)NC(=O)[C@H](CC(=O)O)NC(=O)[C@H](CCCCN)NC(=O)[C@H](Cc1ccccc1)NC(=O)[C@H]([C@@H](C)O)NC(=O)[C@H]([C@@H](C)O)NC(=O)CNC(=O)[C@@H]1CCCN1C(=O)[C@H](CCC(=O)O)NC(=O)[C@@H](NC(=O)[C@@H](NC(=O)[C@@H](NC(=O)[C@H](CCC(=O)O)NC(=O)[C@H](CO)NC(=O)CN)C(C)C)[C@@H](C)O)CSSC[C@H](NC(=O)[C@H](CCCNC(=N)N)NC3=O)C(=O)NCC(=O)N[C@@H](CO)C(=O)N[C@@H](CC(=O)O)C(=O)NCC(=O)N[C@@H](CCCCN)C(=O)N[C@@H](CO)C(=O)N[C@@H](C)C(=O)N[C@@H](C)C(=O)N2`, the Ki was 0.45 ± 0.08 nM (Chymotrypsin-C; enzyme activity, inhibitor).
The Ki of `O[C@H]1[C@H](n2cnc3c(N[C@@H](C4CCC4)C4CC4)nc(I)nc32)[C@H]2C[C@@]2(C(F)F)[C@H]1O` is reported as 2750 nM (HTR2C (Homo sapiens, UniProt P28335); ligand displacement, radioligand).
`OC1Cc2ccccc2CC1N1CCC2(C=Cc3cc(Br)ccc32)CC1` (racemic) gave a Ki of 14 ± 1 nM (Vesicular acetylcholine transporter (Rattus norvegicus, UniProt Q62666); binding, radioligand displacement; PC12 expressing VAChT; with: [3H]vesamicol).
The Ki of `NC1CCSC1=O` (stereo not drawn) is reported as greater than 100000 nM (CA2; CO2 hydration activity, inhibitor, stopped-flow CO2 hydration; room temperature preincubation).
`O=S(=O)(N/N=C/c1ccc(OS(=O)(=O)c2ccccc2)cc1)c1ccc(Cl)cc1` gave a Ki of 565 nM (CA2; enzyme activity, inhibitor, absorbance).
The Ki of `Cc1cc(=O)oc2cc(OCCCCCC[Se]C#N)ccc12` is reported as 77.6 nM (CA12; enzyme activity, inhibitor, stopped-flow).
With `COc1ccc(S(=O)(=O)Oc2ccc(/C=N/NS(=O)(=O)c3ccc(Cl)cc3)cc2)cc1` the Ki was 414 nM (CA2; enzyme activity, inhibitor, absorbance).
With `N[C@H]1CCOC1=O` the Ki was greater than 100000 nM (CA12; CO2 hydration activity, inhibitor, stopped-flow CO2 hydration; room temperature preincubation).
`Cc1cc(O)cc(C)c1C[C@H](N)C(=O)N[C@H](CCCNC(=N)N)C(=O)N[C@@H](Cc1ccccc1)C(=O)N(C)CC(=O)N(C)Cc1cc(C(F)(F)F)cc(C(F)(F)F)c1` has a Ki of 9.12 ± 3.21 nM (OPRD1 (Homo sapiens, UniProt P41143, W274A)).
For `CC(C)[C@H](NC(=O)[C@@H](N)CCC(=O)O)C(=O)N[C@@H](CC(N)=O)C(=O)N[C@@H](Cc1ccc(O)cc1)C(=O)N[C@@H](CC(=O)O)C(=O)N[C@@H](Cc1ccccc1)C(=O)NCC(=O)NCC(=O)N[C@@H](CCCCN)C(=O)O`, the Ki was 201000 nM (ACE (Homo sapiens, UniProt P12821); enzyme activity, inhibitor, absorbance).

Excerpt of the above:
The Ki of `Cn1c(C(C)(C)C)c/c(=N\C(=O)c2cc(C(F)(F)F)ccc2OCC(C)(C)O)n1CC1CCC1` is reported as 1.33 nM (Cnr2 (Mus musculus, UniProt P47936); ligand displacement, radioligand).
The Ki of `O=S(=O)(N/N=C/c1ccc(OS(=O)(=O)c2ccc(Cl)cc2)cc1)c1cc(Cl)ccc1Cl` is reported as 63.7 nM (CA2; enzyme activity, inhibitor, absorbance).
